Results gathered from unrelated publications.
Compare with care: the assays were run in different laboratories. “And” joins repeats or separate records; there may be more than shown. ± gives the spread as reported.
EPHA1: Ephrin type-A receptor 1 (EPHA1, Homo sapiens, UniProt P21709)
Chain of UniProt P21709 (whole entry, looked up): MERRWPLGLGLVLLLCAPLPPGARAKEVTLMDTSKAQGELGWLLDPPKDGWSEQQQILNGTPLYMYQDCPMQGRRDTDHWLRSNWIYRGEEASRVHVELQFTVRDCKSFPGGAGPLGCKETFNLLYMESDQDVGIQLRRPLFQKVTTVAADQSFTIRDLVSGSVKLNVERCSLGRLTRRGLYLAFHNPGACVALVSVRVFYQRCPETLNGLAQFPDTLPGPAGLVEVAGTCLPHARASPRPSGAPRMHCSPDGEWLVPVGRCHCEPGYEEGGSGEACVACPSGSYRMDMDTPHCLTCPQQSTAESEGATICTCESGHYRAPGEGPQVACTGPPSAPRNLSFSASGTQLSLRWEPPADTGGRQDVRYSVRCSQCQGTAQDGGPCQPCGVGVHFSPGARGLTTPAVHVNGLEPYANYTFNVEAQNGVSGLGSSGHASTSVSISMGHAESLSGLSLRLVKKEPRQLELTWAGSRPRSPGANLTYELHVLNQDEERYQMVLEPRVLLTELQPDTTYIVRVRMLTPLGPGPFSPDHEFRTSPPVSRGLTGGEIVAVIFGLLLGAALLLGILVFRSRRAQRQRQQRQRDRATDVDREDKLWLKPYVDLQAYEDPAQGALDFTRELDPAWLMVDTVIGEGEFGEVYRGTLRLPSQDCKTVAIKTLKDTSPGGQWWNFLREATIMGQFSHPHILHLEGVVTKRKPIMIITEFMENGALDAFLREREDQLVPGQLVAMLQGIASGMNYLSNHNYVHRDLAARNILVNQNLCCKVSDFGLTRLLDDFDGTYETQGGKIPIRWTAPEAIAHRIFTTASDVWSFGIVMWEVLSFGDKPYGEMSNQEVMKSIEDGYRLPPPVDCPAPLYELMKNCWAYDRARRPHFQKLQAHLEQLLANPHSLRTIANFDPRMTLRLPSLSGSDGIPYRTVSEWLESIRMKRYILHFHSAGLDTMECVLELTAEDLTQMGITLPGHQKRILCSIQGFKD
KDM4A: Lysine-specific demethylase 4A (KDM4A, Homo sapiens, UniProt O75164)
Chain of UniProt O75164 (whole entry, looked up): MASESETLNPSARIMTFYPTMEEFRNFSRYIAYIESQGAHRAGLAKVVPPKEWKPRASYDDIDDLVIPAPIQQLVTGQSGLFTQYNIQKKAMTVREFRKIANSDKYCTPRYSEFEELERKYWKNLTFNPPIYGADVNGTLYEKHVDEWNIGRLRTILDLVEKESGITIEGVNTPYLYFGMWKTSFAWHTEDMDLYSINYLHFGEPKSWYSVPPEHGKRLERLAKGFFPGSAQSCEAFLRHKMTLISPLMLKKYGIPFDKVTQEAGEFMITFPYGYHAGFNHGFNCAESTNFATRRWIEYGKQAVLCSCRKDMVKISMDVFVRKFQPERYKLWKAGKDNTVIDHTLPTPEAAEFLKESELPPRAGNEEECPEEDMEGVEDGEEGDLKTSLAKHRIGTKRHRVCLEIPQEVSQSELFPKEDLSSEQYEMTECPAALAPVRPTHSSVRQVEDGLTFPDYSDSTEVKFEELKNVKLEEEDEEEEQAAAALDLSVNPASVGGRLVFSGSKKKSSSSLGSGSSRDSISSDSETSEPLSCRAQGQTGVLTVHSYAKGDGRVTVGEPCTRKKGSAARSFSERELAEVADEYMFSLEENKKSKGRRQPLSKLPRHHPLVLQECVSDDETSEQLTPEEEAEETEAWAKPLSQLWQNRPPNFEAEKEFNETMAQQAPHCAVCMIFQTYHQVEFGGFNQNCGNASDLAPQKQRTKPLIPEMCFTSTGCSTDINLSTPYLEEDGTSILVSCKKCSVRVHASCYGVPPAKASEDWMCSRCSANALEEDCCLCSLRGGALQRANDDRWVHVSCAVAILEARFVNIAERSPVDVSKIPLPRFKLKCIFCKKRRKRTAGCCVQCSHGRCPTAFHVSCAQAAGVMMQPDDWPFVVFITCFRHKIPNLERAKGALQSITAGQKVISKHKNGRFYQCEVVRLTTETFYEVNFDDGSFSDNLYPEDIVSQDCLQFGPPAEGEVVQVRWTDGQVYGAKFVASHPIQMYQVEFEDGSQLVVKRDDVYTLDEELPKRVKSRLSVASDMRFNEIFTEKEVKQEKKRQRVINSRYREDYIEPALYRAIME
Chain of UniProt P45983 (whole entry, looked up): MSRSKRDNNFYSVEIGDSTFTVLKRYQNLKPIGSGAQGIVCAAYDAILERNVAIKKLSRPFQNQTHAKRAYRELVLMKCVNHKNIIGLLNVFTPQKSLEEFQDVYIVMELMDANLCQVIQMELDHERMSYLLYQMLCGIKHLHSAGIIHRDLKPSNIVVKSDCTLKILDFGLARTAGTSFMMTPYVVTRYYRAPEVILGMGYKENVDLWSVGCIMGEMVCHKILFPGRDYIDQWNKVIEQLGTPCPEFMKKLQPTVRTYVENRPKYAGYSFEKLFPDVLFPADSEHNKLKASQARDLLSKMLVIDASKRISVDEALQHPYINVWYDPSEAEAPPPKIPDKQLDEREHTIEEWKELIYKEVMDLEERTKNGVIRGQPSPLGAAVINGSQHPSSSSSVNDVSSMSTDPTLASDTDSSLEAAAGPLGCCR
Chain of UniProt O00506 (whole entry, looked up): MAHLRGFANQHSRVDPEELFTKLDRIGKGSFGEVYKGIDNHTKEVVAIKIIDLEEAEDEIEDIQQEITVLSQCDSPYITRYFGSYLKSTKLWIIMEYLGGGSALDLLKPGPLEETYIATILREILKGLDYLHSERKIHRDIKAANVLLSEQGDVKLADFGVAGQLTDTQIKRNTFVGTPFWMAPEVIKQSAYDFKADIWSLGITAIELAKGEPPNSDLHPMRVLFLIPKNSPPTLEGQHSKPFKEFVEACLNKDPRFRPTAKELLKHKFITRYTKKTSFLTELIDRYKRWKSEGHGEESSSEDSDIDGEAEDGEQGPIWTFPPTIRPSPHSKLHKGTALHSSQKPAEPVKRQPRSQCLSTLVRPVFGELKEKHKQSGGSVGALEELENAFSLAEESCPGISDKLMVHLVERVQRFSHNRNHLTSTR
Chain of UniProt Q14289 (whole entry, looked up): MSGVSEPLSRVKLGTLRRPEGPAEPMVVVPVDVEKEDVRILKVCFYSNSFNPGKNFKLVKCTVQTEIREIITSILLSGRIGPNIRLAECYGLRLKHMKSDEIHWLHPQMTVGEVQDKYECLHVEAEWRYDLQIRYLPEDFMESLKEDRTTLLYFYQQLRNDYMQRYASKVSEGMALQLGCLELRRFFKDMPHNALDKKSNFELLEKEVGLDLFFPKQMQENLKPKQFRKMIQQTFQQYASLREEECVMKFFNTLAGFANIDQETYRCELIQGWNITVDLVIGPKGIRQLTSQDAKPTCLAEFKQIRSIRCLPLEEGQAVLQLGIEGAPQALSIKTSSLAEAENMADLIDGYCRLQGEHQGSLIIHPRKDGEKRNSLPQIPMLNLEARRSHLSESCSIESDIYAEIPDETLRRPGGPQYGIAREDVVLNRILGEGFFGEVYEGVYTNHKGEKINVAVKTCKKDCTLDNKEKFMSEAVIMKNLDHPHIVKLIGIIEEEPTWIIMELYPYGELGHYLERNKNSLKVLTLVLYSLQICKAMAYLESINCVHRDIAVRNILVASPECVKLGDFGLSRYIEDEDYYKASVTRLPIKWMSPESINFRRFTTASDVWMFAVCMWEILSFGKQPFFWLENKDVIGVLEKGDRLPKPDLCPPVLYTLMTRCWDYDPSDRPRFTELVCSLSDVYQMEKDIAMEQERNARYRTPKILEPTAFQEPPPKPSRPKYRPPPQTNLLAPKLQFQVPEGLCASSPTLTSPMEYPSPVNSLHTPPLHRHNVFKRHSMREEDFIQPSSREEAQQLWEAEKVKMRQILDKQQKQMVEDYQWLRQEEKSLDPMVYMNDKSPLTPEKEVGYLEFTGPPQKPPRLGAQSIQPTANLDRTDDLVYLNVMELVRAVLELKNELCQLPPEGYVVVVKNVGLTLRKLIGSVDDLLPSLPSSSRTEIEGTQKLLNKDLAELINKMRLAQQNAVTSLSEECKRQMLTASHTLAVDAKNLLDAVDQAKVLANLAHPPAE
Chain of UniProt P48067 (whole entry, unmodified, looked up): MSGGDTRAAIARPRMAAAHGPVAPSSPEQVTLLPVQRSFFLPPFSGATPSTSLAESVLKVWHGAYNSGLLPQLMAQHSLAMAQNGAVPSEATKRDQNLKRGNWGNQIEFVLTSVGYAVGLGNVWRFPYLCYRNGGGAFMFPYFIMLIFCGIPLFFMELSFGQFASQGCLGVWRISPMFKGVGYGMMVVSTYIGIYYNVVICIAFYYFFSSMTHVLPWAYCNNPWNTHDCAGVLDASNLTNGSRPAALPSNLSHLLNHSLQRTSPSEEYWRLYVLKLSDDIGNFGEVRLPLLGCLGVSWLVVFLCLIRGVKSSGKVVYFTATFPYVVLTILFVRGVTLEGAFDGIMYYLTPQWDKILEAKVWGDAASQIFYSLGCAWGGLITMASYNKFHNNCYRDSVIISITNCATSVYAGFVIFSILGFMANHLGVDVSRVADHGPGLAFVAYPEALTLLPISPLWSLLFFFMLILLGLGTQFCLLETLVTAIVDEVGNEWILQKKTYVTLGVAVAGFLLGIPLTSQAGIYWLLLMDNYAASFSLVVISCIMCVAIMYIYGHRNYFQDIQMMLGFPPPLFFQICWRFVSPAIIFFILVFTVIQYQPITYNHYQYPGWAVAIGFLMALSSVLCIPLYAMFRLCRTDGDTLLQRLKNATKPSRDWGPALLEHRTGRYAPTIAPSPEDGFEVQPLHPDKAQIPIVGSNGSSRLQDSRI
Chain of UniProt P97821 (whole entry, looked up): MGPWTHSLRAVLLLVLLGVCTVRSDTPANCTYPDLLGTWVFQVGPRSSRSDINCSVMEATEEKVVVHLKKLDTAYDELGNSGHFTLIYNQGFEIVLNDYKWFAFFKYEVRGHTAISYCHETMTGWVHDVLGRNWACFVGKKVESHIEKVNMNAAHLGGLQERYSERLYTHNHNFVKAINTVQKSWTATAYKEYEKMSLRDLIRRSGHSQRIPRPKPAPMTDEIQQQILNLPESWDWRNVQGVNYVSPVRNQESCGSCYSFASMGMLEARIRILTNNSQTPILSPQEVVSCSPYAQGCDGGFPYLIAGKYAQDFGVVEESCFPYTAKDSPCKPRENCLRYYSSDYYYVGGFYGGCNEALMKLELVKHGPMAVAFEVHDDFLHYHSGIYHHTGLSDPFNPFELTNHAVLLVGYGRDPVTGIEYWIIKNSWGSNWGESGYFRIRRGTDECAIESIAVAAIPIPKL

| SMILES | target | assay | setting | scale | remaining activity |
| --- | --- | --- | --- | --- | --- |
| Cn1ncc(S(=O)(=O)NC2CCOc3c(Cl)cccc32)c1C(=O)O (centres unmarked) | malate dehydrogenase | enzyme activity, inhibitor | 200 µM, pH 7.0, 1% DMSO, aggregation counter-screen | – | 89% |
| C[C@@H](Oc1ccc(S(C)(=O)=O)cc1C(=O)N1C[C@@H]2C[C@]2(c2cc(C(F)(F)F)on2)C1)C(F)(F)F | SLC6A9 (Homo sapiens, UniProt P48067, G373S) | glycine uptake, inhibitor, [3H]glycine uptake | 0.0001 µM, G319S mutant, log concentration -1, together with: [3H]glycine | reference: no inhibitor | 98.6% |
| CC1(C)CCc2sc(CNS(=O)(=O)c3occc3C(=O)O)cc2C1 | malate dehydrogenase | enzyme activity, inhibitor | 200 µM, pH 7.0, 1% DMSO, aggregation counter-screen | – | 75% |
| COc1cc(-c2cncc3c2CN(C)Cc2cc(N4CCNCC4)ccc2-3)cc(OC)c1OC | PDGFRA (Homo sapiens, UniProt P16234, V561D) | kinase activity | 1 µM, together with: ATP 10 µM | reference: DMSO control | 76% |
| c1cnc2ccc(Nc3nc(NC4CC4)c4nc[nH]c4n3)cc2c1 | PDGFRB (Homo sapiens, UniProt P09619) | kinase activity, inhibitor, SelectScreen kinase profiling | 1 µM | reference: control | 78% |
| Cc1cccc(C)c1C(=O)OCC(=O)[C@H](CCCCN)NC(=O)[C@H](CCCNC(=N)N)NC(=O)OCc1ccccc1 | Ctsc (Mus musculus, UniProt P97821) | inhibitor | 1 µM, together with: AMC fluorogenic substrate | reference: untreated | 100% |
| O=C(NC1CCC1)c1ccc2nc(-c3cccc(NS(=O)(=O)NCCN4CCCCC4)c3)cn2c1 | MATK (Homo sapiens, UniProt P42679) | enzyme activity | 10 µM | – | 89% |
| C=CC(=O)N1CCC([C@@H]2CCNc3c(C(N)=O)c(-c4ccc(Oc5ccccc5)cc4)nn32)CC1 | Tyrosine-protein kinase Lyn, isoform B (LYN, Homo sapiens, UniProt P07948) | kinase activity, inhibitor, HotSpot radiometric | 100 nM, together with: ATP 10 µM | – | 90.1 ± 3.6% |
| O=C(O)c1ccc(Nc2ncc3c(n2)-c2ccc(Cl)cc2C(c2c(F)cccc2F)=NC3)cc1 | human EGFR T790M/L858R | inhibitor, biochemical kinase | 1 µM | – | 51% |
| CC(C)CC(C#N)NS(=O)(=O)c1cccc(Cl)c1O (centres unmarked) | malate dehydrogenase | enzyme activity, inhibitor | 200 µM, pH 7.0, 1% DMSO, aggregation counter-screen | – | 72% |
| Cc1cc(Nc2cc(N3CCN(C)CC3)nc(Sc3ccc(NC(=O)C4CC4)cc3)n2)[nH]n1 | EPHA1 | kinase activity, KinaseProfiler | 0.03 µM, species human | reference: control | 99% |
| CCCOc1ccc(OC)c(F)c1C(=O)c1ccc(C(=O)N[C@@H]2CNC[C@H]2NC(=O)c2ccc3[nH]ncc3c2)cc1 | MET (Homo sapiens, UniProt P08581, Y1230C) | enzyme activity | 10 µM | – | 38% |
| O=C(O)c1cc(N=Cc2ccccc2O)cc(C(=O)O)c1 | KDM4A | – | concentration not given | – | 93% |
| COc1cc(Nc2ncc3c(n2)-c2ccc(Cl)cc2C(c2c(F)cccc2OC)=NC3)ccc1C(=O)O | FLT1 | kinase activity | 1 µM | – | 95% |
| O=S(=O)(Nc1ccc(O)c(C(F)(F)F)c1)c1cc(Cl)cc(Cl)c1O | malate dehydrogenase | enzyme activity, inhibitor | 200 µM, pH 7.0, 1% DMSO, aggregation counter-screen | – | 74% |
| Cc1ccc(NC(=O)c2ccc(C)c(C(F)(F)F)c2)cc1C#Cc1nn(C2CCC(O)CC2)c2ncnc(N)c12 (centres unmarked) | Phosphatidylinositol 4,5-bisphosphate 3-kinase catalytic subunit alpha isoform, with p85 alpha (PIK3CA, Homo sapiens, UniProt P42336, E545K) | enzyme activity, inhibitor | 10 µM, p110a(E545K)/p85a)(h human, together with: ATP 10 µM | – | 92% |
| COc1ccc(F)cc1C(=O)NCc1ccc(-c2nn([C@@H](C)C(F)(F)F)c(N)c2C(N)=O)cc1 | STK25 (Homo sapiens, UniProt O00506) | kinase activity, inhibitor, HotSpot radiometric | 1000 nM, together with: ATP at Km | – | 88.8 ± 1.6% |
| O=[N+]([O-])c1ccc(N=Nc2c(O)ccc3ccccc23)c([N+](=O)[O-])c1 | KDM4A | – | concentration not given | – | 73% |
| C=CC[C@@H]1c2ccc(OC)c(OC)c2CN2CCc3cc4c(cc3[C@H]12)OCO4 | P2X purinoceptor 7 (P2rx7, Mus musculus, UniProt Q9Z1M0, A312V) | ATP-evoked current, inhibitor, whole-cell patch clamp | 0.1 µM, A312V variant | – | 97.8% |
| Cn1ncc(S(=O)(=O)NC2CCc3c2ccc(Cl)c3Cl)c1C(=O)O (centres unmarked) | malate dehydrogenase | enzyme activity, inhibitor | 200 µM, pH 7.0, 1% DMSO, aggregation counter-screen | – | 100% |
| NC/C(=C\F)COc1cccc(Cn2c(=S)[nH]c(=O)c3[nH]cnc32)c1 | Lactoperoxidase (LPO, Bos taurus, UniProt P80025) | H2O2 electrode | 10 µM | reference: control | 23.5% and 38.9% |
| COc1cc(F)ccc1-c1ncnc(Nc2cccc(C[S@](C)(=N)=O)c2)n1 | PTK2B (Homo sapiens, UniProt Q14289) | kinase activity | 10 µM, together with: 10 µM ATP | – | 82% |
| C[C@H]1[C@H](OC(=O)CCC(=O)O)O[C@@H]2O[C@@]3(C)CC[C@H]4[C@H](C)CC[C@@H]1[C@@]24OO3 | Non-structural polyprotein pORF1, helicase domain (Hepatitis E virus genotype 1, UniProt P33424) | ATPase activity, inhibitor, colorimetric | 39 µM | reference: untreated | 78.6% |
| Cc1ccc(NS(=O)(=O)c2cccc(Cl)c2O)c(-c2ncn[nH]2)c1 | malate dehydrogenase | enzyme activity, inhibitor | 200 µM, pH 7.0, 1% DMSO, aggregation counter-screen | – | 76% |
| CNc1ncc2c(/C=C/C(=O)N3CCC(OC)CC3)nn(Cc3cccc(C(F)(F)F)c3)c2n1 | EPHA1 | kinase activity, inhibitor | 1 µM | reference: untreated control | 101% |
| COC(=O)c1cc(C)cc(NS(=O)(=O)c2cc(Cl)cc(Cl)c2O)c1 | malate dehydrogenase | enzyme activity, inhibitor | 40 µM, pH 7.0, 1% DMSO, aggregation counter-screen | – | 103% |
| C=CC(=O)N1CCC[C@@H](n2nc(-c3ccc(Oc4ccccc4)cc3)c3c(N)ncnc32)C1 | EPHA7 (Homo sapiens, UniProt Q15375) | – | 1 µM | – | 94.9% |
| CC(=O)Nc1c(C)cc(NS(=O)(=O)c2cc(Cl)cc(Cl)c2O)cc1C | malate dehydrogenase | enzyme activity, inhibitor | 200 µM, pH 7.0, 1% DMSO, aggregation counter-screen | – | 80% |
| Cc1cc(NC(=O)c2cccc(NC(=O)/C=C/CN(C)C)c2)ccc1Nc1nccc(-c2cccnc2)n1 | MAPK8 (Homo sapiens, UniProt P45983) | enzyme activity, inhibitor | 2.79e-05 µM, 6 h, unit not given, together with: GSH 10 mM pre-incubation | reference: vehicle | 1.01 |
